# Results pooled from the literature.
# Every numbered part comes from another study and shows a few of its results, in no order.

# Sample 1 — technique: RNA Bind-n-Seq; form: RNA; matrix: in vitro; tested at: 365 nM; reference: no-protein control; direction: higher = stronger binding
# Target: RNA binding protein fox-1 homolog 2, RRM domain, GST-SBP tag (RBFOX2, Homo sapiens, UniProt O43251-10, residues 100-194)
# Setting: natural RNA segment, single round, ends assumed
# Construct (chain): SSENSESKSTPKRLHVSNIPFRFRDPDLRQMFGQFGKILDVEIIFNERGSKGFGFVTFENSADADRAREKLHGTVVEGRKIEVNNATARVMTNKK
Sequence,RBNS enrichment (R)
GGGAGUUCUACAGUCCGACGAUCGGCUUCCUUUCAGUACAGUAAAAGUCCCUCCCUAUGGGCCAGACUUGAUAAUAGUAGGUGAAGGUUCUGGAGGCCUUUACCAGGACAGAGCUAGAAUCGAGCCAGUAAACUGGAAUUCUCGGGUGCCAA,0.315
GGGAGUUCUACAGUCCGACGAUCGUACAGCAGGUACAACCGCCUGACAGUCUCACAGGUUGUAUCCCACUCCUUACCUGUGGCCCCACCCAGCACAUCACUACGUGGAGGGGAAAGAGGCAGCUCCCACCUGGUGGAAUUCUCGGGUGCCAA,0.496
GGGAGUUCUACAGUCCGACGAUCAUUUUACUCUGAAUUUGUUUAUUAAAAGACUUUUGAACAUGAAAUGAUUAGUAUUACUUGAAUGCAUCCAGAGGAUAUUUAAACCAAAAUGAAAAACCAGAAGGCCAUUUUGGAAUUCUCGGGUGCCAA,0.899
GGGAGUUCUACAGUCCGACGAUCAAGAGUAGGAUUAACACAGGGGAAGUCUUGAGAAGGAGUUUUGAUUCUUUUAUAUGUUUUUAAAAAAAAGCUUAAGAAACAUUGCUUUAAAAAGGAAGGAAAAAAAAUACUGGAAUUCUCGGGUGCCAA,0.716

# Sample 2 — technique: protein binding microarray; form: double-stranded DNA, one strand shown; matrix: in vitro; tested at: not given; reference: not given; direction: higher = stronger binding
# Target: Histone acetyltransferase KAT6A, winged helix 1, GST fusion (KAT6A, Homo sapiens, UniProt Q92794, residues 1-85)
# Setting: 8-mer, flanks averaged, mean of 2 arrays, mostly near background
# Target sequence (chain): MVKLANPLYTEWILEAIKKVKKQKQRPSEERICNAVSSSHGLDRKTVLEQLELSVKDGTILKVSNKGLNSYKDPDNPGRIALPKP
Sequence,E-score
ACACATGG,-0.153
AAACGGAG,0.136
ATGGCCAC,-0.0825
GCCTATCC,0.00336
ACCCCGGC,0.312

# Sample 3 — technique: protein-binding microarray; form: double-stranded DNA, one strand shown; matrix: in vitro; tested at: 2200 nM top; setting: 60-bp whole probe; added: salmon DNA 0.4 mg/ml; reference: random background probes; direction: higher = stronger binding; all sequences stand within: GCCTAGCAC … GTCTTGATTCGCTTGACGCTGCTG
# Target: Interferon regulatory factor 7, full length, phosphomimetic (IRF7, Homo sapiens, UniProt Q92985, residues 1-503, S471D/S472D/S475D/S476D/S477D/S483D/S484D/S487D)
# Construct (chain): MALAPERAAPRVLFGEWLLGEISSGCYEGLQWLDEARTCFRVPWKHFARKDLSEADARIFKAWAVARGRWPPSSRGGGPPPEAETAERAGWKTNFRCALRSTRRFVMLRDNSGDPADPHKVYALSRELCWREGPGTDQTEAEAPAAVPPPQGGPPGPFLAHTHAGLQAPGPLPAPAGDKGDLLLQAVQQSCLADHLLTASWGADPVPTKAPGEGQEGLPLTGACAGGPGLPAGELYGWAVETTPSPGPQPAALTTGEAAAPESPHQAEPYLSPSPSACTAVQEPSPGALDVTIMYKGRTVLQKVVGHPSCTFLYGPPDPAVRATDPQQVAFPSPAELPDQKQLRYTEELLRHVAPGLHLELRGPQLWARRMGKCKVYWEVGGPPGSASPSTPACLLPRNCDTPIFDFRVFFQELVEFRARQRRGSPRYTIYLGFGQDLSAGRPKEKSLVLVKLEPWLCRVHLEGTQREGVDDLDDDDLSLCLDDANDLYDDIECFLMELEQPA
Sequence,fitted relative affinity [z-score]
TTTGGTATCGGTTTCGGTTAGTGCTAG,7.67
TTAGGTATCGGGATTCGGTTAGTGCTA,0.838
GACGATATCAGTTTCGTGACGTGCTAG,2.64
TTAGGACTGGGACCGGGTTAGTGCTAG,-0.86
TTAGATGTCGGGTTTCGATTAGTGCTA,2.5
GACGATATCAGTATAGAGACGTGCTAG,0.00768

# Other studies, line by line
Substance,target,assay,system,setting,scale,measurement,value
"PhoQ, residues 284 288 289 292 302 303 SNGLAW","PhoP, residues 12 14 15 18 19 HLGGL (Escherichia coli, UniProt P23836)","Sort-seq, measured: YFP reporter",E. coli,"PhoQ-PhoP variant library, added: 10 µM Mg2+","reference: high Mg2+ state, higher = stronger signaling",fold induction,14

# Some of these lines once more (sample 1):
Sequence,RBNS enrichment (R)
GGGAGUUCUACAGUCCGACGAUCAAGAGUAGGAUUAACACAGGGGAAGUCUUGAGAAGGAGUUUUGAUUCUUUUAUAUGUUUUUAAAAAAAAGCUUAAGAAACAUUGCUUUAAAAAGGAAGGAAAAAAAAUACUGGAAUUCUCGGGUGCCAA,0.716
GGGAGUUCUACAGUCCGACGAUCAUUUUACUCUGAAUUUGUUUAUUAAAAGACUUUUGAACAUGAAAUGAUUAGUAUUACUUGAAUGCAUCCAGAGGAUAUUUAAACCAAAAUGAAAAACCAGAAGGCCAUUUUGGAAUUCUCGGGUGCCAA,0.899
